Measured values gathered from unrelated publications.
Lines come from different studies, so protocols differ.
Organism: Enterococcus faecium

CCCCCCC#Cc1cncc(-c2nnc(SCc3ccc([N+](=O)[O-])o3)n2CCCN)c1
MIC (broth microdilution; ATCC 51559 MDR VRE; 18 to 24 h, 37 °C): 64 µg/mL

CC[C@H](C)[C@H](N)C(=O)N[C@@H](CCCNC(=N)N)C(=O)N[C@H](C(=O)N[C@@H](Cc1c[nH]c2ccccc12)C(=O)N[C@@H](CCCCN)C(=O)N[C@@H](CCCCN)C(=O)N[C@@H](Cc1ccccc1)C(=O)N[C@H](C(=O)N[C@@H](CCCNC(=N)N)C(=O)N[C@@H](CCCCN)C(=O)N[C@@H](CCSC)C(=O)N[C@@H](CCCCN)C(=O)N[C@@H](C)C(=O)N[C@H](C(=O)N[C@@H](Cc1ccc(O)cc1)C(=O)N[C@@H](Cc1c[nH]cn1)C(N)=O)[C@@H](C)CC)C(C)C)C(C)C
MIC (broth dilution; KCTC 13225): 25 µM

CC[C@H](C)[C@H](NC(=O)[C@H](CC(C)C)NC(=O)[C@H](CCCNC(=N)N)NC(=O)[C@@H](N)CCCNC(=N)N)C(=O)N[C@@H](CCCNC(=N)N)C(=O)N[C@H](C(=O)N[C@@H](CC(=O)O)C(=O)N[C@H](C(=O)NCC(=O)N1CCC[C@H]1C(=O)N[C@H](C(=O)N[C@H](C(=O)N[C@@H](Cc1ccc(O)cc1)C(=O)N[C@@H](CC(=O)O)C(=O)N[C@@H](Cc1ccc(O)cc1)C(=O)N[C@@H](Cc1ccccc1)C(=O)N[C@@H](CCCCN)C(=O)N[C@@H](CC(=O)O)C(=O)N[C@@H](CCC(N)=O)C(=O)N[C@@H](CC(C)C)C(=O)N[C@@H](CC(C)C)C(=O)N[C@@H](CCCCN)C(=O)N[C@@H](CCCCN)C(N)=O)[C@@H](C)CC)[C@@H](C)CC)[C@@H](C)O)[C@@H](C)O
MIC (ATCC 51559, vancomycin-resistant, Mueller-Hinton broth; 24 h): > 128 µM

CN[C@H](CC(C)C)C(=O)N[C@H]1C(=O)N[C@@H](CC(N)=O)C(=O)N[C@H]2C(=O)N[C@H]3C(=O)N[C@H](C(=O)N[C@H](C(=O)O)c4cc(O)cc(O)c4-c4cc3ccc4O)[C@H](O)c3ccc(c(Cl)c3)Oc3cc2cc(c3O[C@@H]2O[C@H](CO)[C@@H](O)[C@H](O)[C@H]2O[C@H]2C[C@](C)(N)[C@H](O)[C@H](C)O2)Oc2ccc(cc2Cl)[C@H]1O
MIC (VRE vanB): 86 µM

CCCCCCC#Cc1cncc(-c2nnc(Sc3ccc([N+](=O)[O-])cc3[N+](=O)[O-])n2C)c1
MIC (vancomycin-resistant; no activity at value): ≥ 20 µg/mL

CCCCCCCCCC(=O)N[C@@H](Cc1c[nH]c2ccccc12)C(=O)N[C@H](CC(N)=O)C(=O)N[C@@H](CC(=O)O)C(=O)N[C@@H]1C(=O)NCC(=O)N[C@@H](CCCN)C(=O)N[C@@H](CC(=O)O)C(=O)N[C@H](C)C(=O)N[C@@H](CC(=O)O)C(=O)NCC(=O)N[C@H](CO)C(=O)N[C@@H]([C@H](C)CC(=O)O)C(=O)N[C@@H](CC(=O)c2ccccc2N)C(=O)O[C@@H]1C
MIC (resistant isolate; 16 h, with: Ca2+ 10 mM): 2 µg/mL

CN[C@H](CC(C)C)C(=O)N[C@H]1C(=O)N[C@@H](CC(N)=O)C(=O)N[C@H]2C(=O)N[C@H]3C(=O)N[C@H](C(=O)N[C@H](C(=O)O)c4cc(O)cc(O)c4-c4cc3ccc4O)[C@H](O)c3ccc(c(Cl)c3)Oc3cc2cc(c3O[C@@H]2O[C@H](CO)[C@@H](O)[C@H](O)[C@H]2O[C@H]2C[C@](C)(N)[C@H](O)[C@H](C)O2)Oc2ccc(cc2Cl)[C@H]1O
MIC (VanA vancomycin-resistant): > 16 µg/mL

CC(C)C[C@H](NC(=O)[C@@H](NC(=O)[C@H](CCCNC(=N)N)NC(=O)[C@H](CCC(N)=O)NC(=O)[C@H](Cc1ccccc1)NC(=O)[C@H](Cc1ccc(O)cc1)NC(=O)[C@H](CC(N)=O)NC(=O)[C@H](Cc1c[nH]c2ccccc12)NC(=O)[C@@H](NC(=O)[C@H](CCCNC(=N)N)NC(=O)[C@H](CCCCN)NC(=O)[C@@H](N)Cc1ccccc1)C(C)C)C(C)C)C(=O)N[C@H](C(=O)N[C@@H](CCCCN)C(=O)N[C@@H](CCCCN)C(N)=O)C(C)C
MIC (broth dilution; KCTC 13225): 6.3 µM

CN[C@H](CC(C)C)C(=O)N[C@H]1C(=O)N[C@@H](CC(N)=O)C(=O)N[C@H]2C(=O)NC3C(=O)N[C@H](C(=O)N[C@H](C(=O)NCCC[N+](C)(C)C)c4cc(O)cc(O)c4-c4cc3ccc4O)[C@H](O)c3ccc(c(Cl)c3)Oc3cc2cc(c3OC2OC(CO)C(O)[C@H](O)[C@@H]2O[C@H]2CC(C)(NCc3ccc(-c4ccc(Cl)cc4)cc3)[C@H](O)[C@H](C)O2)Oc2ccc(cc2Cl)[C@H]1O (stereo partly drawn)
MIC (VanA VRE ATCC BAA-2317; with: LTA 100 µg/mL and Mg2+ 100 µg/mL): 5 µg/mL

CC[C@H](C)[C@H](NC(=O)[C@H](CCCCN)NC(=O)[C@H](CCCCN)NC(=O)CNC(=O)[C@H](CCCCN)NC(=O)[C@H](CC(C)C)NC(=O)[C@H](CCCCN)NC(=O)[C@H](CCCNC(=N)N)NC(=O)[C@@H](NC(=O)[C@H](CC(C)C)NC(=O)[C@H](CCCNC(=N)N)NC(=O)[C@@H](N)CCCNC(=N)N)[C@@H](C)CC)C(=O)N[C@@H](Cc1ccc(O)cc1)C(=O)N[C@@H](CC(C)C)C(=O)N[C@@H](Cc1ccc(O)cc1)C(=O)N[C@@H](Cc1ccccc1)C(=O)N[C@@H](CCCCN)C(=O)N[C@@H](CC(C)C)C(=O)N[C@@H](CCC(N)=O)C(=O)N[C@@H](CC(C)C)C(=O)N[C@@H](CC(C)C)C(=O)N[C@@H](CCCCN)C(=O)N[C@@H](CCCCN)C(N)=O
MIC (ATCC 51559, vancomycin-resistant, Mueller-Hinton broth; 24 h): 4 µM

CS(=O)(=O)Nc1ncn(-c2cc(F)c(COc3ccc(OS(=O)(=O)F)cc3)c(F)c2)n1
MIC: > 50 µM

CCCCCCC#Cc1cncc(-c2nnc(SCc3ccc([N+](=O)[O-])cc3)n2CCCN)c1
MIC (broth microdilution; ATCC 51559 MDR VRE; 18 to 24 h, 37 °C): 8 µg/mL

Some of these lines once more:
CC[C@H](C)[C@H](NC(=O)[C@H](CCCCN)NC(=O)[C@H](CCCCN)NC(=O)CNC(=O)[C@H](CCCCN)NC(=O)[C@H](CC(C)C)NC(=O)[C@H](CCCCN)NC(=O)[C@H](CCCNC(=N)N)NC(=O)[C@@H](NC(=O)[C@H](CC(C)C)NC(=O)[C@H](CCCNC(=N)N)NC(=O)[C@@H](N)CCCNC(=N)N)[C@@H](C)CC)C(=O)N[C@@H](Cc1ccc(O)cc1)C(=O)N[C@@H](CC(C)C)C(=O)N[C@@H](Cc1ccc(O)cc1)C(=O)N[C@@H](Cc1ccccc1)C(=O)N[C@@H](CCCCN)C(=O)N[C@@H](CC(C)C)C(=O)N[C@@H](CCC(N)=O)C(=O)N[C@@H](CC(C)C)C(=O)N[C@@H](CC(C)C)C(=O)N[C@@H](CCCCN)C(=O)N[C@@H](CCCCN)C(N)=O
MIC (ATCC 51559, vancomycin-resistant, Mueller-Hinton broth; 24 h): 4 µM
